Literature values as cited in several papers.
Each line is one published result; not all experiments were run side by side. ± gives the spread as reported.
UniProt Q9R0C9, sequence (whole entry, looked up): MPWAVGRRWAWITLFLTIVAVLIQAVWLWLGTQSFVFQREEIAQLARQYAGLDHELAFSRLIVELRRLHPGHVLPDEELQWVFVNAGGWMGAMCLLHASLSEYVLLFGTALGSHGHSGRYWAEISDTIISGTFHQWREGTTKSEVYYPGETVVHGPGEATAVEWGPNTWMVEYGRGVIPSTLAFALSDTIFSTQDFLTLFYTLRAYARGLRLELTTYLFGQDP
UniProt P47898, sequence (whole entry, looked up): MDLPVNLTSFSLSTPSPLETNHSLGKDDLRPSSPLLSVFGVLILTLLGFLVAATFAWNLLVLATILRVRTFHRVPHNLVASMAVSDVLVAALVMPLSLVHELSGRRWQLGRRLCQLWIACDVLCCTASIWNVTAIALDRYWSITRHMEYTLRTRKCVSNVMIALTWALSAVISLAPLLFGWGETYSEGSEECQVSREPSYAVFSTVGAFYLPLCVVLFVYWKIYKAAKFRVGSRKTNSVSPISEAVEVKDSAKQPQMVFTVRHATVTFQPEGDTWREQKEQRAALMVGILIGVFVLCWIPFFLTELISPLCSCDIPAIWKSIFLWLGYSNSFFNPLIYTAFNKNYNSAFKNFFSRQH

SMILES = Nc1ncnc2c1nc(Br)n2C1OC2COP(O)(=S)OC2C1O (centres unmarked); tested on = PDE4D; assay = cyclic nucleotide hydrolysis, substrate or inhibitor, isothermal titration calorimetry; endpoint = Km or Ki; result = 28.7 µM
SMILES = NC(=O)c1ncn([C@@H]2O[C@H](CO)[C@@H](O)[C@H]2O)n1; tested on = measles virus; assay = viral replication, MTT; test system = Edmonston; endpoint = EC50; result = 5.2 µM
SMILES = CCCCCCCCC(F)(P(=O)(O)O)P(=O)(O)O; tested on = Trypanosoma cruzi; assay = growth; test system = amastigotes; endpoint = EC50; result = > 10 µM
SMILES = O=c1c2nc(Br)n([C@@H]3O[C@@H]4CO[P@@](O)(=S)O[C@H]4[C@H]3O)c2nc2[nH]c(-c3ccccc3)cn12; tested on = PDE4D; assay = cyclic nucleotide hydrolysis, substrate or inhibitor, isothermal titration calorimetry; endpoint = Km or Ki; result = 8.1 µM
SMILES = Nc1nc2c(ncn2/C=C2/CC2(CO)CO)c(=O)[nH]1; tested on = human cytomegalovirus; assay = viral replication, plaque reduction; test system = HFF, Towne; endpoint = EC50; result = 0.42 ± 0.23 µM
SMILES = Nc1ncn(CCOCP(=O)(O)O)c(=O)n1; tested on = herpes simplex virus 1; assay = viral replication; test system = HEL, KOS TK- acyclovir-resistant; endpoint = EC50; result = 68 µM
SMILES = CC(=Nc1ccccc1N)c1c(C)cc(=O)n(O)c1O; tested on = hepatitis B virus; assay = viral replication; endpoint = EC50; result = 0.69 µM
SMILES = CCCCCCCCNCC(O)(P(=O)(O)O)P(=O)(O)O; tested on = Trypanosoma cruzi; assay = growth; test system = amastigotes; endpoint = EC50; result = > 10 µM
SMILES = C=CCN(CC=C)CCc1c[nH]c2ccc(Br)cc12; tested on = Sigmar1 (Rattus norvegicus, UniProt Q9R0C9); endpoint = Ki; result = 0.101 µM
SMILES = Cc1cc(-c2ccc(C(F)(F)F)cn2)[nH]c1C(=O)N[C@@H](CN)c1ncc(CO)s1; tested on = HIV-1 HXB2; assay = viral replication; endpoint = EC50; result = < 0.2 µM
SMILES = CCCCCCCCCC(F)(P(=O)(O)O)P(=O)(O)O; tested on = Trypanosoma cruzi; assay = growth; test system = amastigotes; endpoint = EC50; result = > 10 µM
SMILES = Cc1nc(N(C)C(=O)Cc2ccc(-c3ccccn3)cc2)sc1S(N)(=O)=O; tested on = herpes simplex virus 1; assay = viral replication; test system = helicase-primase inhibitor-resistant; endpoint = EC50; result = > 248 µM
SMILES = CCCCCCCNCC(P(=O)(O)O)P(=O)(O)O; tested on = Trypanosoma cruzi; assay = growth; test system = amastigotes; endpoint = EC50; result = 10 µM
SMILES = CCC[C@H](NC(=O)[C@@H]1[C@H]2CCC[C@H]2CN1C(=O)[C@@H](NC(=O)[C@@H](NC(=O)c1cnccn1)C1CCCCC1)C(C)(C)C)C(=O)C(=O)NC1CC1; tested on = hepatitis C virus; assay = viral replication; test system = genotype 1b replicon; endpoint = EC50; result = 0.35 to 0.56 µM
SMILES = NC(=O)NO; tested on = human cytomegalovirus; assay = viral replication, virus titre reduction; endpoint = EC50; result = < 500 µM
SMILES = Clc1ccc(Cn2c(CN3CCCC3)nc3ccccc32)cc1; tested on = hepatitis C virus; assay = viral replication; test system = Huh-7.5, genotype 2a; endpoint = EC50; result = 8 µM
SMILES = C=CCN(CC=C)CCc1c[nH]c2ccccc12; tested on = HTR5A (Homo sapiens, UniProt P47898); assay = binding, [3H]LSD displacement; endpoint = Ki; result = > 10 µM

Repeated from above:
SMILES = CC(=Nc1ccccc1N)c1c(C)cc(=O)n(O)c1O; tested on = hepatitis B virus; assay = viral replication; endpoint = EC50; result = 0.69 µM
